Published values pooled from the literature.
“And” joins repeats or separate records; there may be more than shown. ± gives the spread as reported.
UniProt P16234, sequence (whole entry, unmodified, looked up): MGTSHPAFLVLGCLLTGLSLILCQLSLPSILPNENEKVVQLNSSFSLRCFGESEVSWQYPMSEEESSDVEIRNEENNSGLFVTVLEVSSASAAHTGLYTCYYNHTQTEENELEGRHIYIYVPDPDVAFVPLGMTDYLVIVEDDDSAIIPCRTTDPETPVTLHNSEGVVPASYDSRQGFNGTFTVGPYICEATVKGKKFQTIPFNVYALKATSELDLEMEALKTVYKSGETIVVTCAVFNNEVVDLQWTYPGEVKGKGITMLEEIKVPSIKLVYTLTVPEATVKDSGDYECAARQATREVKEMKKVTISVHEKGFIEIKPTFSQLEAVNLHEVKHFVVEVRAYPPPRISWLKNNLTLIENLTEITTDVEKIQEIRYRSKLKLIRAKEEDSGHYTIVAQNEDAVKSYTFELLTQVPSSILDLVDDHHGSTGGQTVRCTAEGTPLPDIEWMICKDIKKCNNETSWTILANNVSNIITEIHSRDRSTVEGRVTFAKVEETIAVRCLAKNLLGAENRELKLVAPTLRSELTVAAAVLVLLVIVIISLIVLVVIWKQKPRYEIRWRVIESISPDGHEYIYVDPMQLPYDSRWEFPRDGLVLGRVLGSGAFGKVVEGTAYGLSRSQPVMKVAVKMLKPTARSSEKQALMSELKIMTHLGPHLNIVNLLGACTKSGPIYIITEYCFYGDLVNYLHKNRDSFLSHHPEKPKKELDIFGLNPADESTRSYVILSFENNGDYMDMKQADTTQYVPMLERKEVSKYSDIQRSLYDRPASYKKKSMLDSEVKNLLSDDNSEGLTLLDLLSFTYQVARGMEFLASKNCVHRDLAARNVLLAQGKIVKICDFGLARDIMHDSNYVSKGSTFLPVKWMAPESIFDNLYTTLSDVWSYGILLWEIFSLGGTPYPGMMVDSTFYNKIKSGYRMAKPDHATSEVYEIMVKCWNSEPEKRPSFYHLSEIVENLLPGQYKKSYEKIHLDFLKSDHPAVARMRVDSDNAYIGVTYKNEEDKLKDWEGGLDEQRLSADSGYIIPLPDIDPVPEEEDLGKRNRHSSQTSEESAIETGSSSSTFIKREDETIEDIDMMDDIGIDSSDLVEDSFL

CC(C)C[C@H](NC(=O)[C@H](Cc1ccc(O)cc1)NC(=O)[C@@H](CCCNC(=N)N)NC(=O)[C@@H](CO)NC(=O)[C@H](Cc1ccccc1)NC(=O)[C@H](CC1CCCCC1)NC(=O)[C@H](CC(=O)O)NC(=O)CN1CCN(CC(=O)O)CCN(CC(=O)O)CCN(CC(=O)O)CC1)C(=O)N[C@@H](Cc1c[nH]c2ccccc12)C(=O)N[C@@H](CO)C(=O)O [copper-64 labelled]
activity concentration (human, kidney; concentration not given, 24 h): 1130 Bq/mL and 1290 Bq/mL and 1220 Bq/mL and 1740 Bq/mL and 1650 Bq/mL and 2940 Bq/mL

OCC1OC(n2cnc3c(NCc4ccc(Br)s4)ncnc32)C(O)C1O (stereo not shown)
clearance (ICR mice, male, blood; intravenous, 1 mg/kg): 0.4 ± 0.1 mL/min

Cc1ncsc1-c1ccc(C(C)NC(=O)C2CC(O)CN2C(=O)C(NC(=O)CCCCCCCCCCN2CCCC(Nc3ncc(Cl)c(Nc4ccccc4S(=O)(=O)C(C)C)n3)C2)C(C)(C)C)cc1 (stereo not shown)
log2 fold change (22Rv1; RNA-seq, refers to: ST6GAL1 mRNA; concentration not given; reference: DMSO): -1.5

CNc1cc(N)c(C(N)=O)c[n+]1C
plasma concentration of product (substrate, refers to: methylated product; rats, plasma; oral, 30 mg/kg, 2.00 h): 0.198 µM and 0.192 µM

C=C(NC(=O)c1csc(-c2nc3c(cc2O)-c2nc(cs2)C(=O)NC(C(C)O)C(=O)NC(=C(C)OC)c2nc(cs2)C(=O)NC2c4nc(cs4)C(=O)NC(COC(=O)c4c5c6c(cccc6n4O)COC(=O)C(OC4CC(C)(O)C(N(C)C)C(C)O4)C2OC5)c2nc-3cs2)n1)C(N)=O (stereo not shown)
Tmax (cynomolgus monkey, plasma; intravenous, 1 mg/kg, single dose, infusion): 4.2 min

O=C(Nc1cnccc1-c1ccc([18F])cc1)c1ccnc(NC(=O)C2CC2)c1
SUV (FVB/NJ mice (both sexes), spleen; intravenous, dose not given, 120 min): 0.15

O=C([O-])CN1CCN(CC(=O)[O-])CCN(CC(CCCc2ccccc2[N+](=O)[O-])N(CC(=O)[O-])CC(=O)[O-])CC1.[177Lu+3] (stereo not shown)
intact radiolabelled complex (TLC; human serum; 134 h, pH 7, 37 °C): 99.9 ± 0.1%

CC(C)Cc1ccc(C(C)C(=O)N[C@@H](CCCCNC(=O)CCOCCOCCOCCOCCOCCOCCNC(=O)CN2CCN(CC(=O)[O-])CCN(CC(=O)[O-])CCN(CC(=O)[O-])CC2)C(=O)Nc2cccc3c(C(=O)NCC(=O)N4CC(F)(F)C[C@H]4C#N)ccnc23)cc1.[177Lu+3] (stereo partly shown)
radiochemical stability (human serum; 4 h, 37 °C, 177Lu-labelled): 98.8 ± 1.5%

COc1cccc(OC)c1-c1cc(C(=O)NC2(C(=O)O)C3CC4CC(C3)CC2C4)nn1-c1ccc(C(=O)N(C)CCCN(C)C(=O)[C@H](CCCCNC(=O)[C@H](CC(C)C)NC(=O)C2OC2C(=O)O)NC(=O)CN2CCN(CC(=O)[O-])CCN(CC(=O)[O-])CCN(CC(=O)[O-])CC2)cc1C(C)C.[177Lu+3] (mixture of isomers)
tissue uptake (mouse, HT-29 xenograft, muscle; 72 h post injection): 0.05 %ID/g

C=CC(=O)Nc1cc(Nc2nccc(-c3cn(C)c4ccccc34)n2)c(OC)cc1N(C)CCNC
recovery (storage stability; human dried blood spots; 5 h, on ice, low QC level): 99.7%

CC(C)(C)NCC(SS(=O)(=O)O)c1ccccc1 (stereo not shown)
body weight (Swiss Webster mice, Schistosoma mansoni-infected; 600 mg/kg single dose on day 1 post-infection, perfusion day 44 post-infection): 32.1 g

CCCCN1C(=O)c2cccc3c(NCCCCCCCCCCN4CCOCC4)ccc(c23)C1=O
Stokes shift (acetonitrile): 91 nm

Nc1ncnc2[nH]c(/C=C/c3ccc([N+](=O)[O-])cc3)nc12
purity (HPLC; solution; after 1 h light exposure): 100%

CCCCN1C(=O)c2cccc3c(NCCN4CCOCC4)ccc(c23)C1=O
Stokes shift (acetonitrile): 98 nm

Cc1nn(-c2cccc(N)c2)c(=O)c2cnc(Nc3ccc(N4CCNCC4)cc3)nc12
IC50 (PDGFRA (Homo sapiens, UniProt P16234, D842V); kinase activity, inhibitor, SelectScreen kinase profiling): > 10000 nM

C=CC(=O)Nc1cccc(Cn2ncc3cnc(Nc4cnn(CCOC)c4)nc32)c1
percent of control (ASK1 human; binding, KINOMEscan; 100 nM; lower = stronger binding): 100%

COc1ccc(OC(C)=O)cc1-c1c[nH]c2ncc(-c3cncc(C(=O)N(C)C)c3)cc12
reactivity half-life (HPLC; acetonitrile/water/DMSO; 50 µM, 37 °C, DIPEA 20 eq, together with: N-α-acetyl-lysine): > 1440 min

CC[C@H](C)[C@H](NC(=O)[C@H](Cc1ccccc1)NC(=O)[C@H](CCC(=O)O)NC(=O)[C@H](CCCCN)NC(=O)[C@H](C)NC(=O)[C@H](C)NC(=O)[C@H](CCC(N)=O)NC(=O)CNC(=O)[C@H](CCC(=O)O)NC(=O)[C@H](CC(C)C)NC(=O)[C@H](Cc1ccc(O)cc1)NC(=O)[C@H](CO)NC(=O)[C@H](CO)NC(=O)[C@@H](NC(=O)[C@H](CC(=O)O)NC(=O)[C@H](CO)NC(=O)[C@@H](NC(=O)[C@H](Cc1ccccc1)NC(=O)[C@@H](NC(=O)CNC(=O)[C@H](CCC(=O)O)NC(=O)[C@H](C)NC(=O)[C@@H](N)Cc1c[nH]cn1)[C@@H](C)O)[C@@H](C)O)C(C)C)C(=O)N[C@@H](C)C(=O)N[C@@H](Cc1c[nH]c2ccccc12)C(=O)N[C@@H](CC(C)C)C(=O)N[C@H](C(=O)N[C@@H](CCCNC(=N)N)C(=O)NCC(=O)N[C@@H](CCCNC(=N)N)C(=O)NCC(=O)O)C(C)C
clearance (male ICR mice, plasma; intravenous bolus, 1 mg/kg): 105 mL/min/kg and 101 mL/min/kg and 254 mL/min/kg

CCCC[C@H](NC(=O)COCCOCCNC(=O)CN1CCN(CC(=O)O)CCN(CC(=O)O)CC1)C(=O)N[C@H]1CC(=O)NCCCC[C@@H](C(N)=O)NC(=O)[C@H](Cc2c[nH]c3ccccc23)NC(=O)[C@H](CCCNC(=N)N)NC(=O)[C@@H](Cc2ccccc2)NC(=O)[C@H](Cc2c[nH]cn2)NC1=O [technetium-99m labelled]
tissue uptake (C57 mouse, tumor; intravenous, 0.037 MBq, 24 h): 1.33 ± 0.15 %ID/g

N#C[C@@H]1CC(F)(F)CN1C(=O)CNC(=O)c1ccnc2c(NC(=O)[C@H](CCCCNC(=O)CCOCCOCCOCCOCCOCCOCCNC(=O)CN3CCN(CC(=O)[O-])CCN(CC(=O)[O-])CCN(CC(=O)[O-])CC3)NC(=O)CCCc3ccc(I)cc3)cccc12.[177Lu+3]
radiochemical stability (PBS; 1 h, 37 °C, 177Lu-labelled): 99.78 ± 0.3%

CCCCCC(=O)[O][Pt]([Cl])([Cl])[O]C(=O)CCCCC.N.N
clearance (ICP-MS, refers to: platinum; nude mice, blood; intravenous, equimolar single dose): 1.87e-06 mg/(ng/mL)/h

CCCCN1C(=O)c2cccc3c(NCCCCCCCCN4CCOCC4)ccc(c23)C1=O
Stokes shift (toluene): 77 nm

Cc1n[nH]c(C)c1CCCOc1cc(C(=O)NCCCCC(NC(=O)CN2CCN(CC(=O)[O-])CCN(CC(=O)[O-])CCN(CC(=O)[O-])CC2)C(=O)NCC2CCC(C(=O)NC(Cc3ccc4ccccc4c3)C(=O)NCCCCC(NC(=O)NC(CCC(=O)O)C(=O)O)C(=O)O)CC2)ccc1F.[68Ga+3] (stereo not shown)
radiochemical purity (radio-HPLC; saline; 4 h, pH 7.4, room temperature): 95.4 ± 0.99%

CC(C)C[C@@H](NC(=O)[C@H](NC(=O)[C@H]1CCCN1)[C@H](C)O)C(=O)N[C@H](Cc1c[nH]cn1)C(=O)N[C@@H](C(=O)N[C@H](Cc1c[nH]cn1)C(=O)N[C@H](CC(N)=O)C(=O)N[C@H](CCCNC(=N)N)C(=O)N[C@H](CCCNC(=N)N)C(=O)N[C@H](CCCNC(=N)N)C(=O)N[C@H](CCCNC(=N)N)C(=O)N[C@H](CCCNC(=N)N)C(N)=O)[C@H](C)O
glucose (Beagle dog, blood; oral, 30 mg/kg daily, 3 months): 5.1 mmol/L

O=C([O-])CN1CCN(CC(=O)[O-])CCN(C(CO)C(O)CO)CCN(CC(=O)[O-])CC1.[Dy+3] (stereo not shown)
lanthanide concentration (cynomolgus monkey, cerebrum; dose not given, day 5): 0.026 ± 0.01 nmol/g

CNS(=O)(=O)Nc1nccc(Cc2c(C)c3ccc(Oc4ncccc4F)cc3oc2=O)c1F
IC50 (NCI-H508; cell viability; 7 days): 0.968 nM

C/C(N)=N/C(=N\S(=O)(=O)c1ccc(C(F)(F)F)cc1)N1C[C@H](c2ccccc2)C(c2ccc(Cl)cc2)=N1
Cmax (male C57BL/6 mouse, lung; intravenous, 5 mg/kg): 6540 ng/mL

CN([O-])C(=O)CN1CCNCCN(CC(=O)N(C)[O-])CC1.[89Zr+4]
tracer uptake (mouse, lung; intravenous, 4 h): 0.18 %ID/g

O=C(Nc1cnccc1-c1ccc([18F])nc1)c1ccnc(NC(=O)C2CC2)c1
SUV (ex vivo gamma counting; GSK-3β transgenic mice, early-stage, cerebellum; intravenous, 120 min, mean, no P-gp inhibitor): 0.023

O=C1c2sc(-c3ccc(N4CCC(F)C4)nc3F)nc2CCN1c1cccnc1 (stereo not shown)
concentration (CD1 mouse, brain; i.v., dose not given, 1 h): 31.8 ng/g and 39.6 ng/g and 25.2 ng/g

Cc1nc(N)nc2c1C(=O)N[C@@H](c1ccc(F)cc1-c1cccc(O[11CH3])n1)C2
SUV (ex vivo biodistribution; healthy mice, blood; 60 min post-injection, baseline, vehicle pre-treatment): 0.5 ± 0.1

Nc1ncc(-c2cc(-c3cnn(CC(F)(F)F)c3)ncc2F)nc1C(=O)NC1CNCC(F)C1 (stereo not shown)
remaining binding (ERN1; KINOMEscan; 1 µM; reference: DMSO control): 100%

N#C[C@@H]1CC(F)(F)CN1C(=O)CNC(=O)c1ccnc2c(NC(=O)[C@@H](N)CCCCNC(=O)CCOCCOCCOCCOCCOCCOCCNC(=O)CN3CCN(CC(=O)[O-])CCN(CC(=O)[O-])CCN(CC(=O)[O-])CC3)cccc12.[177Lu+3]
radiochemical stability (PBS; 1 h, 37 °C, 177Lu-labelled): 99.12 ± 0.8%

Cc1cc(-c2ccc(C(=O)[C@@H]3CCCC[C@H]3C(=O)Nc3cnn4c3C(=O)NCC4)cc2)[nH]n1
recovery of radioactivity per interval (human, urine; oral, 200 mg, 6-12 h; reference: dose): 2.66%

C[N+](C)(CCOCCOCCOCCNC(=S)Nc1ccc(C[C@H]2CN(CC(=O)[O-])CCN(CC(=O)[O-])CCN2CC(=O)[O-])cc1)C[c-]1cccc1.[64Cu+2].[Fe+2].c1cc[cH-]c1
weighted blood half-life (healthy nude mice, blood; intravenous, dose not given): 11 min

O=C(O)c1c(O)cc(O[C@@H]2O[C@H](CO)[C@@H](O)[C@H](O)[C@H]2O)cc1/C=C/c1ccccc1
serum ALT (FVB mouse; 40 mg/kg, 2 weeks; reference: vehicle): no effect

CC(C(=O)O)n1nc(Cn2cc3cc(OCC[18F])c(Cl)cc3n2)c2ccccc2c1=O (racemic)
tracer uptake (rat, muscle; 30 min): 0.05 %ID/g

CN(O)C(=O)CCC(=O)NCCCN(CCCCN(CCCNC(=O)CCC(=O)N(C)O)C(=O)CCC(=O)N(C)O)C(=O)CCC(=O)N(C)O.[89Zr]
intact complex (radio-TLC; aqueous buffer; 3 d, pH 7.2, 37 °C, 89Zr-labelled complex, together with: MgCl2 10-fold excess): 98.1 ± 1.8%

CCCCN1C(=O)c2cccc3c(NCCCCCN4CCOCC4)ccc(c23)C1=O
Stokes shift (acetonitrile): 88 nm

COC1CN([C@H]2CC[C@H]([C@@]3(C)Oc4c(Cl)cc(C(=O)NCc5c(SC)cc(C)[nH]c5=O)c(C)c4O3)CC2)C1
log2 fold change (RNA-seq, refers to: CREB3L3 mouse homolog; mouse, HT-1376 xenograft, whole blood; dose not given; reference: vehicle): 1.37

Repeated from above:
Cc1ncsc1-c1ccc(C(C)NC(=O)C2CC(O)CN2C(=O)C(NC(=O)CCCCCCCCCCN2CCCC(Nc3ncc(Cl)c(Nc4ccccc4S(=O)(=O)C(C)C)n3)C2)C(C)(C)C)cc1 (stereo not shown)
log2 fold change (22Rv1; RNA-seq, refers to: ST6GAL1 mRNA; concentration not given; reference: DMSO): -1.5

COc1cccc(OC)c1-c1cc(C(=O)NC2(C(=O)O)C3CC4CC(C3)CC2C4)nn1-c1ccc(C(=O)N(C)CCCN(C)C(=O)[C@H](CCCCNC(=O)[C@H](CC(C)C)NC(=O)C2OC2C(=O)O)NC(=O)CN2CCN(CC(=O)[O-])CCN(CC(=O)[O-])CCN(CC(=O)[O-])CC2)cc1C(C)C.[177Lu+3] (mixture of isomers)
tissue uptake (mouse, HT-29 xenograft, muscle; 72 h post injection): 0.05 %ID/g
